Measurements gathered from unrelated publications.
Each numbered part is a random draw from the data of one study; scales do not carry over between parts.
Sequence of UniProt P10721 (whole entry, looked up): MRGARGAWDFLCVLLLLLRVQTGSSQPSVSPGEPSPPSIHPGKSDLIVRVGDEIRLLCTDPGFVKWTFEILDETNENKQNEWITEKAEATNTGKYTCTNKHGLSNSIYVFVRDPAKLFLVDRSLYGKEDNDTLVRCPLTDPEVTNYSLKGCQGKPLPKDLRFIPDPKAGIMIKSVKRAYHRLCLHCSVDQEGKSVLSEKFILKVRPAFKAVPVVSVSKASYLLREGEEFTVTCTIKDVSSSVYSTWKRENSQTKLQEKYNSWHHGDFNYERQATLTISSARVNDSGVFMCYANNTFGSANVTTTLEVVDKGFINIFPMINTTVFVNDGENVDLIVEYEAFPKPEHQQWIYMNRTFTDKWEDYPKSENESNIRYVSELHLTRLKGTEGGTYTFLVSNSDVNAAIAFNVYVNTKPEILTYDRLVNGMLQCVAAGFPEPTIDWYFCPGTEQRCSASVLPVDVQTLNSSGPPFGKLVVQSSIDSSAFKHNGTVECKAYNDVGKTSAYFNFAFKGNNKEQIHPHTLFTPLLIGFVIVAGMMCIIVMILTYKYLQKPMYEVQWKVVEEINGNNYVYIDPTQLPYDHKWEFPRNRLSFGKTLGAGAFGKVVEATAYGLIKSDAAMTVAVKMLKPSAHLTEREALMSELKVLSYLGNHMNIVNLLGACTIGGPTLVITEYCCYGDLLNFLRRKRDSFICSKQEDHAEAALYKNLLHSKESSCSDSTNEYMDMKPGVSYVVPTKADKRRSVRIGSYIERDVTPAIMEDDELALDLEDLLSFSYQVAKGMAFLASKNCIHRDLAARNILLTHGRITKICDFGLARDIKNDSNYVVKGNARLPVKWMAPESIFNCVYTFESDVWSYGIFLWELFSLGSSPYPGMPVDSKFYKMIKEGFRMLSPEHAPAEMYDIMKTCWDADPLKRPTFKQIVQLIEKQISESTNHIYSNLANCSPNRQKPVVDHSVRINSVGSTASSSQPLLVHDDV

Sample 1
Target: Max dimerization protein 1, bHLH-zipper, MAX partner unstated (MXD1, Homo sapiens, UniProt Q05195, residues 56-136)
Method: protein-binding microarray
Form: double-stranded DNA, one strand shown
Sample: in vitro
Tested at: not given
Notes: k-mer, scored over probes, only values ≥0.25
Direction: higher = stronger binding
Quantity: E-score
Construct (chain): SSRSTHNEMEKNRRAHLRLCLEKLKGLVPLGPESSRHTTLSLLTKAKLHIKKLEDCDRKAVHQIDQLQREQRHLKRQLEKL
GGCACCAC: 0.269
ATGCTCAC: 0.271
ATCACGAG: 0.295
CGTGGAGC: 0.364
CGCGTGTA: 0.443
GGGGGAGA: 0.268
AACACGCA: 0.272
CGTGCGTA: 0.258

Sample 2
Target: Prothrombin, mature alpha-thrombin (F2, Homo sapiens, UniProt P00734)
Method: aptamer microarray, sandwich
Form: DNA with 2'F-ANA
Sample: in vitro
Tested at: 200 nM
Notes: whole 15-mer aptamer, many near background
Added: Cy3 exosite-II aptamer, 400 nM
Direction: higher = stronger binding
Quantity: mean fluorescence intensity
Sequence: GGTTGGTGTGGTTGG
2'F-ANA at 4 6 7 8 9 11 14 15: 84.2 a.u.
2'F-ANA at 2 3 5 6 7 8 11 13 14: 51.1 a.u.
2'F-ANA at 1 2 4 5 7 10 11 13: 45.4 a.u.
2'F-ANA at 1 2 4 5 7 9 10 12 15: 90.4 a.u.
2'F-ANA at 2 5 7 9 10 13: 47.1 a.u.
2'F-ANA at 1 2 3 5 7 10 11 14: 55.5 a.u.
2'F-ANA at 6 7 10 15: 155 a.u.
2'F-ANA at 1 3 5 6 9 12 13 14: 45.6 a.u.

Sample 3
Target: Ras GTPase-activating protein-binding protein 1, full length (G3BP1, Homo sapiens, UniProt Q13283)
Sequence of UniProt Q13283 (whole entry, looked up): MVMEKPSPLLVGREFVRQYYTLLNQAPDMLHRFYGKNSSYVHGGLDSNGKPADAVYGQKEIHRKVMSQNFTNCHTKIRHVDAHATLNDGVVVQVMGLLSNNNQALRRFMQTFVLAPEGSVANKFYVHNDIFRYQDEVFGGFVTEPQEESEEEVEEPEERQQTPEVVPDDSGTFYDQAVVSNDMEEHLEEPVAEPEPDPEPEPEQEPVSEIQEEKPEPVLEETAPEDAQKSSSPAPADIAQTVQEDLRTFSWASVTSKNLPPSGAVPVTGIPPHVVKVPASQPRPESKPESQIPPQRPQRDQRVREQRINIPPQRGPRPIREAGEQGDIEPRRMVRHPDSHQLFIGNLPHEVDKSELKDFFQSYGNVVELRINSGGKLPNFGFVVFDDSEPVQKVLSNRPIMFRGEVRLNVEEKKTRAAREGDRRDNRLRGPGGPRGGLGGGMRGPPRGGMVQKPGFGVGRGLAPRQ
Method: RNA Bind-n-Seq
Form: RNA
Sample: in vitro
Tested at: 200 nM
Notes: whole 134-nt RNA, ends assumed
Added: 150 mM KCl
Reference: input library
Direction: higher = stronger binding
Quantity: log2 enrichment
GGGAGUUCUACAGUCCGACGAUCUGUGCUACACAUCGUAUGUACCGAAUCGGGGUUUUUUUGGGUUUUUUUGGGGUUUUUUUGGGGAAAGUAUUAUGUUACGCCGUUCGGAUCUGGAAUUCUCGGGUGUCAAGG: -0.657
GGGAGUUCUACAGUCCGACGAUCCUCAAGUCCUGUGCUACACAUCGUAUGUACCGAAUCGGAAAGGAAAGGGAAAGGAAAGUAUUAUGUUACGCCGUUCGGAUCUGCACUUCCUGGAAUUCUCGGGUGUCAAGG: -0.773
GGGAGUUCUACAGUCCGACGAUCCACAGACAACACGCACCCACACAAAAACAGAGGGAAGGGGUUGGGAUGGGGACAGGGUGCACAGCAGGGCGGGGUAGGACCCCAGCCCCUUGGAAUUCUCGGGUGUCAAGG: 1.77
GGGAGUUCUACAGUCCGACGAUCUGUCGGGGCCAAAGUGGUAACGAACGCCCGCAGCCCGGGGGCUCGAUGCUAUGGAUUCGUCACCAUGUCGACAUCUGACGAGGCGACCAAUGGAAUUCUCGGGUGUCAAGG: -2.39
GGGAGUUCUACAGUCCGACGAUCUCCUGUGCUACACAUCGUAUGUACCGAAUCGGUUUUUUUGGUUUUUUUGGUUUUUUUGGGAAAGUAUUAUGUUACGCCGUUCGGAUCUGCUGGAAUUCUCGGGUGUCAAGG: -0.555
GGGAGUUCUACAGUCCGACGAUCAAGUCCUGUGCUACACAUCGUAUGUACCGAAUCGGAAAGGAAAAAGGAAAAAAAGGAAAGUAUUAUGUUACGCCGUUCGGAUCUGCACUUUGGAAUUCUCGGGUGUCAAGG: -1.32
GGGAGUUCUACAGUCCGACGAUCUGUGCUACACAUCGUAUGUACCGAAUCGGGGUUUUUUUGGGGAAAAAGGGGUUUUUUUGGGGAAAGUAUUAUGUUACGCCGUUCGGAUCUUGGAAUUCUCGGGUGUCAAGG: -0.321
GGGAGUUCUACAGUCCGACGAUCUCAAGUCCUGUGCUACACAUCGUAUGUACCGAAUCGGGGUGGGGAGGGGUGGGGAAAGUAUUAUGUUACGCCGUUCGGAUCUGCACUUCCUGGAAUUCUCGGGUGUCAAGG: 1.32

Mixed results
N#CC(c1ccnc(NCCc2cccnc2)n1)c1nc2ccccc2s1 (stereo not shown)  remaining activity (Mast/stem cell growth factor receptor Kit (KIT, Homo sapiens, UniProt P10721); enzyme activity, inhibitor; 0.5 µM; reference: control): 93.6%

A few entries again (sample 2):
2'F-ANA at 2 5 7 9 10 13: 47.1 a.u.
2'F-ANA at 1 2 3 5 7 10 11 14: 55.5 a.u.
2'F-ANA at 6 7 10 15: 155 a.u.
